Assay results collected from several papers.
Parts stem from different laboratories: compare values within a part only. Substitutions count along the parent as printed.

Series 1 — method: universal PBM; form: double-stranded DNA, one strand shown; matrix: in vitro; concentration: 600 nM; reading: higher = stronger binding
Target: Sal-like protein 4, full length isoform A (SALL4, Homo sapiens, UniProt Q9UJQ4, residues 1-1053)
Sequence of UniProt Q9UJQ4 (whole entry, looked up): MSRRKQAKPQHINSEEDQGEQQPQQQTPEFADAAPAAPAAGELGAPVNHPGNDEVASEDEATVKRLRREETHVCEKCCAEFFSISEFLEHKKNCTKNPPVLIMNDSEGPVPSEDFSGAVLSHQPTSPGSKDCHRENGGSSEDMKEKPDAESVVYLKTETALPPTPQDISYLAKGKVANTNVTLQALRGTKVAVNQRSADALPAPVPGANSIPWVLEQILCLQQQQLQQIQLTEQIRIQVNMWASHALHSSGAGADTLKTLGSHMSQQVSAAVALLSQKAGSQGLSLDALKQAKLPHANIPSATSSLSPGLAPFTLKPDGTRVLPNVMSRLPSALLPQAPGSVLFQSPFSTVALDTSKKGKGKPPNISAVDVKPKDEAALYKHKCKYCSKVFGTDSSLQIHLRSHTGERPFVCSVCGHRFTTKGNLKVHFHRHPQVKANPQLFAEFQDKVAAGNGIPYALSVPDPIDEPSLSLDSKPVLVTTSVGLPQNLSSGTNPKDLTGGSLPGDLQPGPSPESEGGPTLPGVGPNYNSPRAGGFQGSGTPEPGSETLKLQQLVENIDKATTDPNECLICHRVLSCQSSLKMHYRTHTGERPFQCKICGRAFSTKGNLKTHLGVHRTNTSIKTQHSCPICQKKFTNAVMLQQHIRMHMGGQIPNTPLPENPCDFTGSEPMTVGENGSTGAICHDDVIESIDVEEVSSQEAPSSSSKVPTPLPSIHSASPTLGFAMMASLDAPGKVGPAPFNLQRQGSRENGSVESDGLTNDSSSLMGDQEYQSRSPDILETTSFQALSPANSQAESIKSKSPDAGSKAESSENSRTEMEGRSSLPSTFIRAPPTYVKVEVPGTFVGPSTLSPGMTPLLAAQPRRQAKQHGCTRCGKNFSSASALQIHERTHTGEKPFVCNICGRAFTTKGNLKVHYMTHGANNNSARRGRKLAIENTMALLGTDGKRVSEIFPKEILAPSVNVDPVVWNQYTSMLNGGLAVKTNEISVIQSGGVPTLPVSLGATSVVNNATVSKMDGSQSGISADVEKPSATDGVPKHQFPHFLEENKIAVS
Setting: 8-mer, flanks averaged, mean of replicates
For `CATTTACA`, the E-score was 0.177.
The E-score of `GTGTGTGA` is reported as 0.0175.
`AGTGGTGC` has an E-score of -0.149.
`ATTGATTA` gave an E-score of 0.311.
For `AAGACCGT`, the E-score was -0.183.
The E-score of `AGGCGTTA` is reported as -0.0015.

Series 2 — method: RNA Bind-n-Seq; form: RNA; matrix: in vitro; concentration: 365 nM; reference: no-protein control; reading: higher = stronger binding
Target: RNA binding protein fox-1 homolog 2, RRM domain, GST-SBP tag (RBFOX2, Homo sapiens, UniProt O43251-10, residues 100-194)
Setting: natural RNA segment, single round, ends assumed
Shared flanks, not repeated: GGGAGUUCUACAGUCCGACGAUC … UGGAAUUCUCGGGUGCCAA
Construct (chain): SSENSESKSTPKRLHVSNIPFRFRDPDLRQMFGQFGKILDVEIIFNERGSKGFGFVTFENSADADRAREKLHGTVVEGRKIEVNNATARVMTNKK
For `AAGGCCACACCACUUCCGCUGUGUAUCAGUCUAUCAUACACUCCGCACGGUCACAUGAUCACUUCACUUCUCGAUGGCUAUUGCAGACCAAGACUGCAGUCAAGAAGGGA`, “RBNS enrichment (R)” read 0.282.
`AGUUAACAUUUAAAGGAGUUUUUGUGAGACAAAUUCUCCAUUGUGAGAUCUCUGAAGUGGGAUUGUCUUAUUUUCCUUAGUACAGCCCACUGCCAAAAAGCUUCCUCUGA` — result for “RBNS enrichment (R)”: 0.311.
`CACUCUGAUUCAGAAACACACUUCUACCUCUUUACUGUUAACUCUUAACAGAUGCAGUCAGCAGUUUCUGGGCACUUCUCUCAGUAGGUGCCUCAUGCUGACUUCUCCAG` — result for “RBNS enrichment (R)”: 0.375.
Under “RBNS enrichment (R)”, `UGAAGAGAAAUUUGUGUGUCCUUGUUUGUUGCCUGAUCUUAGUUUCAUGGAAGAAAAUGGAAUCUACAGAAUUAUUUUCAAAAAUAAAGUAAAGGCUGAAUUGCUGAAAA` is recorded as 0.811.
`GCAAACACCUUCUGAAUUGCCAGCGCCCGGGUUUUUAUGUAAAAAUAGAGUGGCUAUGGAAGUUACACCUUCAUCUGUGGGAAGUAUUCUCAAACGUAGGGGUAUCUUUA`: “RBNS enrichment (R)” 0.532.
`GCUUACUGAAUUAUUUUUGCAAAUAAUACAAGGAGGGGAAACUAACUUGCUACUAGUGUUGUUAAUGAAGUAUAGGCCUUGGAACAUUUAAGAAAACUGGUCUUCAGAUA` — result for “RBNS enrichment (R)”: 0.495.

Further values, each from its own experiment — CCNA1: CCNA1, cyclin fold, Cln2 fusion (human)
P1: MASTL docking peptide (human); PMIAKNLMCELDE; partner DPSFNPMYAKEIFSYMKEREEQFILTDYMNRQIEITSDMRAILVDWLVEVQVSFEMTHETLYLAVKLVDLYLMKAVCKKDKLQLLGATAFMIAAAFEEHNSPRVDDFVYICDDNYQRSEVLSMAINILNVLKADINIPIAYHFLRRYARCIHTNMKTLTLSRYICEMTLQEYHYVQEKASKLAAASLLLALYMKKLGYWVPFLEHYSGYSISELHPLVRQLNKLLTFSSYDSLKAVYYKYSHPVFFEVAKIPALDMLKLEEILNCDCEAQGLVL
P2: CDC6 docking peptide (human); TLKGRRLVFDNQL; partner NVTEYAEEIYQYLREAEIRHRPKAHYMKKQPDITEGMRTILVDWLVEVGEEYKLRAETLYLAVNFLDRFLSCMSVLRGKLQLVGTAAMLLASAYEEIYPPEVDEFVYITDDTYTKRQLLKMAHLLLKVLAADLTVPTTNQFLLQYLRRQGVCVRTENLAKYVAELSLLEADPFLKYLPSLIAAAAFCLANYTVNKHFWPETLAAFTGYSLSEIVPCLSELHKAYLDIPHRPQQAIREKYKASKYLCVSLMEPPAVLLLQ
P3: PKN2 docking peptide (human); VSAVRKLDFSDTM; partner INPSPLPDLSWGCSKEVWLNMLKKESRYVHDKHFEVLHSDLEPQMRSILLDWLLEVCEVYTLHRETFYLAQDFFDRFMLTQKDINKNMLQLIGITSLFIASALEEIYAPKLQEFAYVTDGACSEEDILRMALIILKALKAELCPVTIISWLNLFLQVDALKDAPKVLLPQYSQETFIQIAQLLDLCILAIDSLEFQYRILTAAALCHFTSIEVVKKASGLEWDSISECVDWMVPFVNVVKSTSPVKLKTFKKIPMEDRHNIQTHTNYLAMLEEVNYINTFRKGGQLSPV
For `P1 K5P`, “normalised enrichment score” read 0.0796 (CCNB3, cyclin fold, Cln2 fusion (human); yeast growth competition, sequencing; yeast; weak parent motif; reference: not given, higher = stronger binding).
For `PhoQ, residues 284 288 289 292 302 303 SQSLSM`, the fold induction was 10.2 (PhoP, residues 12 14 15 18 19 NFCKL (Escherichia coli, UniProt P23836); Sort-seq, measured: YFP reporter; E. coli; PhoQ-PhoP variant library, added: 10 µM Mg2+; reference: high Mg2+ state, higher = stronger signaling).
For `P2 T1F`, “normalised enrichment score” read -0.225 (CCNA1; yeast growth competition, sequencing; yeast; weak parent motif; reference: not given, higher = stronger binding).
`P2 L13C` — result for “normalised enrichment score”: 0.289 (CCNA1; yeast growth competition, sequencing; yeast; weak parent motif; reference: not given, higher = stronger binding).
Under “normalised enrichment score”, `P3 A3Q` is recorded as 0.37 (CCNE2, cyclin fold, Cln2 fusion (human); yeast growth competition, sequencing; yeast; strong parent motif; reference: not given, higher = stronger binding).

For quick reference, copied from above (series 1):
For `AAGACCGT`, the E-score was -0.183.
The E-score of `AGGCGTTA` is reported as -0.0015.
